Measured values from different studies.
Compare with care: the assays were run in different laboratories.
Target: Transcriptional activator protein LasR (lasR, Pseudomonas aeruginosa, UniProt P25084)
Observed: reporter gene
Sequence (P25084 1-239, as in one of the studies): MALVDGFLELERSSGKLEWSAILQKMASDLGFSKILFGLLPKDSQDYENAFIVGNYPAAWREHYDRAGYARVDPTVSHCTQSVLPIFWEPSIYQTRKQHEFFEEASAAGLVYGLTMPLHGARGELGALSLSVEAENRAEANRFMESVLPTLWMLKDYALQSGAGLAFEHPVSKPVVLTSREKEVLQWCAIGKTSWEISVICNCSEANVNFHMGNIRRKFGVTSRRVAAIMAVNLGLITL

SMILES | test | test system | conditions | how to read | quantity | result
O=C(Cc1c(F)c(F)c(F)c(F)c1F)N[C@H]1CCOC1=O | antagonist | Escherichia coli JLD271 pJN105L pSC11 | 100 µM, together with: 2 nM OdDHL | baseline: untreated, negative means agonism | inhibition | 76%
O=C(N[C@H]1CCOC1=O)c1ccc(-n2cc(-c3ccccc3)nn2)cc1 | antagonist |  | 100 µM, together with: OdDHL 10 nM |  | inhibition | 38%
CCCCCCCCCCCNC(=O)CC(=O)c1ccccc1 | antagonist | Pseudomonas aeruginosa PAO-JP2 GFP reporter | together with: 150 nM OdDHL |  | maximum inhibition | 92%
CCCc1cn(-c2cccc(C(=O)N[C@H]3CCOC3=O)c2)nn1 | agonist | Escherichia coli, DH5α pJN105L/pSC11 | 100 µM | baseline: OdDHL at same concentration | activation | 1%
O=C(N[C@H]1CCOC1=O)C1CCCC1 | agonist | Escherichia coli JLD271/pJN105L/pSC11 | 100 µM | baseline: OdDHL 100 µM | activation | -4%
O=C(CCCc1ccccc1)N[C@H]1CCOC1=O | antagonist |  | 10 µM, together with: 1 10 nM |  | inhibition | 0%
CCCCCCCCCC(=O)NC1CCCC1 | antagonist | PAO-JP2 plasI-LVAgfp | 200 µM, together with: OdDHL 150 nM |  | inhibition | ~50%
CCCCCCCCCCNC(=O)CC(=O)c1ccccc1 | antagonist | Pseudomonas aeruginosa PAO-JP2 GFP reporter | together with: 150 nM OdDHL |  | maximum inhibition | 93%
O=C(CCc1ccc(C(F)(F)F)cc1)N[C@H]1CCOC1=O | agonist | Escherichia coli, JLD271 pJN105L pSC11 |  |  | Emax | 105%
O=C(Cn1cc(-c2cc(F)cc(F)c2)nn1)N[C@H]1CCOC1=O | antagonist |  | 100 µM, together with: OdDHL 10 nM |  | inhibition | 71%

Repeated from above:
SMILES | test | test system | conditions | how to read | quantity | result
O=C(CCCc1ccccc1)N[C@H]1CCOC1=O | antagonist |  | 10 µM, together with: 1 10 nM |  | inhibition | 0%
